Measurements from different studies.
Parts stem from different laboratories: compare values within a part only.

Set 1
Target: Histone acetyltransferase KAT6A, winged helix 1, GST fusion (KAT6A, Homo sapiens, UniProt Q92794, residues 1-85)
Technique: protein binding microarray
Molecule type: double-stranded DNA, one strand shown
Matrix: in vitro
Concentration: not given
Setting: 8-mer, flanks averaged, mean of 2 arrays, mostly near background
Relative to: not given
Reading: higher = stronger binding
Target sequence (chain): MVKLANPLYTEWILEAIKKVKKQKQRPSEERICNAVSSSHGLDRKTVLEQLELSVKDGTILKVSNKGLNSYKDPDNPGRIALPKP
Sequence	E-score
CTTGGCAC	-0.221
GCATTTGA	0.0473
AGAAATAC	-0.12
AAGAACAG	-0.151
AGCAATGA	-0.276
CCGGTGCC	0.29
CATCCCTA	-0.144
TCAACGAA	-0.202
GATAGACA	-0.221
AAACATTA	0.0705
GAACGTTC	-0.142
CGCCAGTC	0.207
ATACGTAA	0.0325
ATCTCGCG	0.113
AAAGACGG	0.12
CCGTTTAG	0.273
AAATTTTG	-0.156
AATACTCT	-0.165
CGGGGCAC	0.3
ACGTATAA	0.022
GCATCTTA	-0.0563

Set 2
Target: RNA binding protein fox-1 homolog 2, RRM domain, GST-SBP tag (RBFOX2, Homo sapiens, UniProt O43251-10, residues 100-194)
Technique: RNA Bind-n-Seq
Molecule type: RNA
Matrix: in vitro
Concentration: 365 nM
Setting: natural RNA segment, single round, ends assumed
Relative to: no-protein control
Reading: higher = stronger binding
Shared flanks, not repeated: GGGAGUUCUACAGUCCGACGAUC … UGGAAUUCUCGGGUGCCAA
Residues (chain): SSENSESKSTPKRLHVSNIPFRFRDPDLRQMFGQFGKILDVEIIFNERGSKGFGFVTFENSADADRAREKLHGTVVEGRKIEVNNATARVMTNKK
Sequence	RBNS enrichment (R)
AUUUGAAAUGACCCCUCCUCGCUGUGAGAGUCCAGAGUCUCCUGAAGUUUGUCAAUGACUGAAAUGCGAGCAGUGUCACCCAGAGUUGUGGUCAGCCUUACCCCUUCUCC	0.459
UGUUCUUCCGUUUGCUGCAACGAUGUCCUUGGAAAAAGAUAGAAUGGAAAUUAUUUUUCCAAAAUAAAGGAGAUAAAGUGCCAUCCCAAAACACACAGAUAUUAUUAGAG	1.64
UGUUUGAGAAAUUAUUUUUUUACAGAUCUUUAUAAAAAAUAAACAUCUUUUGAUUGCUUGGAUUUAGGAAUUCAGUUUUUGUUUUAAUGACCAAUGUCAAGUUUCAGGUU	1.79
GACUUUGCUAAGUUCAUCUCAGGGUUAUCUGAGCCUUGACCAAGUUUAUCCUAAGGGAAUACCACUUUGCUCCCUGUGCAUAGUUUAGGAACUGUAGUCCUAGGAGGAAA	0.329
GAGUUGCCUGGGAUUGGGAGCUGUGGGUGGUGCAAGUCAGGGAGUGGGCCAGGAGAGGCCCGGGUUUUCUGUUUGAGCUAUACUCUGACCCAGGAUGUUAGAGCACACUG	1.59
GUUAUUUUACAGCUGUUUGUUAAAAUAGUGAAUAAUUUAAUGAUCCUAAAAGUAACAGGUUUCGUGUGAGUGUGCUUGUAUACGUGAGAUUUGCCUUAUUUUCAGGUUGU	3.82
CUGCUACUUUGGGGAGUUGAUGGCCAGGAAAGAAGCCAGCACAGGGUUAAAGUAACUCCUGGCAUUGCCCACCAGGGGGCUGGUGCACCUGCUGACCUCAGGGUCACAGU	0.739
ACCUGCCCAGGCAGCCCCUCGUCACCUACUCCCCGAAGUUACCAGCUCAGCUCGAGUCUUCAGGGCUGGGCUCCUAGGCUGCCCAUCCUACUUCUACCCUCACUGGCCUC	0.355
GAAAAUUGUUUAGUGAUAUUACAUUUAUUUAUCCAGAAAACUGUGAUUUCAGGAGAACCUAACAUGCUGGUGAAUAUUUUCAACUUUUUCCCUCACUAAUUGGUACUUUU	0.585
UAAUAGCUCCUUUCUCCUUCCUCUGAUUUUUAUAUGCUGCUAAAUAUAUUUUAAAUAUACUGUGUUUGCACACACUGGUAGCUAUGUGUUUGCACACAUUGGUAGACUGU	0.607
AGAAGCCUCUGCACCUACUGUGCAGAACUCUCCACUUCCCCAACCCUCCCCAGGUGGGCAGGGCGGAGGGAGCCUCAGCCUCCUUAGACUGACCCCUCAGGCCCCUAGGC	0.266
CUGCCUGGCAUCUGAUGGGUCAGGUCAAGCCCGUGCUGGUUUUGACUAAGGGUAGAGACUAAGGGGAGACUUGUUUUUCUGAAGUAGACUGCUUUCACUCGGCCUGAUGG	0.394

Set 3
Target: Interferon regulatory factor 7, full length, phosphomimetic (IRF7, Homo sapiens, UniProt Q92985, residues 1-503, S471D/S472D/S475D/S476D/S477D/S483D/S484D/S487D)
Sequence of UniProt Q92985 (whole entry, unmodified, looked up): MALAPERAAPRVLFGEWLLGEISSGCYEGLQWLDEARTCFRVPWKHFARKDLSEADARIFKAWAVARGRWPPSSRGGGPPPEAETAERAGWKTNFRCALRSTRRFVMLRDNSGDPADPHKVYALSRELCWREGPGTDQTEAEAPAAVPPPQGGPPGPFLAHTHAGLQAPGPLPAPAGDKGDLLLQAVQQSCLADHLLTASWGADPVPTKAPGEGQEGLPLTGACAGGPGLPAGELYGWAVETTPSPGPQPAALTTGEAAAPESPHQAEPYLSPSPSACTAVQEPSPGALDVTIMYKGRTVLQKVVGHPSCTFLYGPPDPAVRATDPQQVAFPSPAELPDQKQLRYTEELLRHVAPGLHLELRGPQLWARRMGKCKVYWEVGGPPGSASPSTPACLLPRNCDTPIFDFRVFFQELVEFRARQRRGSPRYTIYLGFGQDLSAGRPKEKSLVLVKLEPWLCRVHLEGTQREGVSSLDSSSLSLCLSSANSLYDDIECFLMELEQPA
Technique: protein-binding microarray
Molecule type: double-stranded DNA, one strand shown
Matrix: in vitro
Concentration: 2200 nM top
Setting: 60-bp whole probe
With: salmon DNA 0.4 mg/ml
Relative to: random background probes
Reading: higher = stronger binding
Shared flanks, not repeated: GCCTAGCAC … GTCTTGATTCGCTTGACGCTGCTG
Sequence	fitted relative affinity [z-score]
CCCTGAGGAATCCTGCAGCCGTGCTAG	-1.01
TTAGGTATCGGTTTCGGTTTGTGCTAG	13
TTAGGACTGGGGACTGGATTAGTGCTA	-0.712
GACGGTATCAGTATCGAGACGTGCTAG	0.242
GACGAACTGAGGATCGAGACGTGCTAG	-0.211
GAGGATCTCAGTCTCGAGACGTGCTAG	0.121
GACGGACTGGGTTACGGGACGTGCTAG	-0.804
TTAGATTTCGGTCTCGGTTAGTGCTAG	3.57
GACGGTTTCCTCATCCTGACGTGCTAG	2.4
AGAGCTAAGTGAGTGTCATCGTGCTAG	-0.388
TTAGATCTGAGACTGGATTAGTGCTAG	-0.417
TCATGTTTGGGTCTTGTACTGTGCTAG	1.35
GACGGTTCCCTTTTCCTGACGTGCTAG	2.69
TTAGGTTCCCTTTTCCTTAAGTGCTAG	2.75
TTAGAACGGAGTATCGATTAGTGCTAG	-0.364
GACGGACTGGGTTTCGGGACGTGCTAG	1.02
GACGCACTGGGTATCGGGACGTGCTAG	-0.191
GACGATATCGGATTTCGAGACGTGCTA	0.626
TCAACTAGGGAATTTAGAACTGTGCTA	-1
TTAGGTTTCCTGCTGCTTTAGTGCTAG	1.27
TTAGGTTTCGGGACTAGGTTAGTGCTA	3.29
TCCATGCTGGCTTTTATGCGGTGCTAG	-0.188
GACAGTTTCCTACTGCTGACGTGCTAG	1.9
GACGGTTTCGGACTGGGAACGTGCTAG	3.6
TCATATACACTTATGACACTGTGCTAG	1.08

Set 4
Target: Ras GTPase-activating protein-binding protein 1, RRM domain (G3BP1, Homo sapiens, UniProt Q13283)
Sequence of UniProt Q13283 (whole entry, looked up): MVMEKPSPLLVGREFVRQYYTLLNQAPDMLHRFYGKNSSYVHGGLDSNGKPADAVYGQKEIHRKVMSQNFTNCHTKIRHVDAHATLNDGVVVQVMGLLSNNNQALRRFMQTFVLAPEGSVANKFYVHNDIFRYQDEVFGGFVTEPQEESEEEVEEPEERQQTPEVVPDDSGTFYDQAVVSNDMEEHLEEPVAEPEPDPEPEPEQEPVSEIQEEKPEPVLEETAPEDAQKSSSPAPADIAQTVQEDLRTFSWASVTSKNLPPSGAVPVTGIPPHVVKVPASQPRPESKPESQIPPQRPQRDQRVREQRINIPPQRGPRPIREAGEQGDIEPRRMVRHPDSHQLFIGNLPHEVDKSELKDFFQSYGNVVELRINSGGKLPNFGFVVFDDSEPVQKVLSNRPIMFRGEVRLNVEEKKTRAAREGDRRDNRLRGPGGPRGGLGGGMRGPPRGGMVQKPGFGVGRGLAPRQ
Technique: RNA Bind-n-Seq
Molecule type: RNA
Matrix: in vitro
Concentration: 1 µM
Setting: whole 134-nt RNA, ends assumed
With: 150 mM KCl
Relative to: input library
Reading: higher = stronger binding
Shared flanks, not repeated: GGGAGUUCUACAGUCCGACGAUC … UGGAAUUCUCGGGUGUCAAGG
Sequence	log2 enrichment
CAAGUCCUGUGCUACACAUCGUAUGUACCGAAUCGGGGCCCCGGCCCCGGCCCCGGAAAGUAUUAUGUUACGCCGUUCGGAUCUGCACUU	-0.756
UCAAGUCCUGUGCUACACAUCGUAUGUACCGAAUCGGUUUUUUUGGUUUGGAGGAAAGUAUUAUGUUACGCCGUUCGGAUCUGCACUUCC	-0.339
GUCCUGUGCUACACAUCGUAUGUACCGAAUCGGGAAAAAAAGGGAAAAAGGGUUUGGGAAAGUAUUAUGUUACGCCGUUCGGAUCUGCAC	0.0233
CCUCAAGUCCUGUGCUACACAUCGUAUGUACCGAAUCGGCGGGGCGGGGCGGAAAGUAUUAUGUUACGCCGUUCGGAUCUGCACUUCCAG	-0.279
ACCAUGCAGGUGGGCAUCUUUGGGAAGUGGGGCAAGGGGGGGAUAGGGAGGGGUGUAACACUUUGGGAACAGGUGGUCCCAGGUCGUUUC	0.731
CCUCAAGUCCUGUGCUACACAUCGUAUGUACCGAAUCGGGGAGGGAGGGAGGGAAAGUAUUAUGUUACGCCGUUCGGAUCUGCACUUCCA	1.26
ACCAUGCAGGUGGGCAUCUUUGGGAAGUGGGGCAACGGGGGGAUAGGGAGGGGGGUAACACUUUGGGAACAGGUGGUCCCAGGUCGUUUC	-0.344
AGUCCUGUGCUACACAUCGUAUGUACCGAAUCGGGGAAAGGGGAAAAAGGGGAGGGGAAAGUAUUAUGUUACGCCGUUCGGAUCUGCACU	1.45
UGUGCUACACAUCGUAUGUACCGAAUCGGGAAAAAAAGGGGAAAAAAAGGGAAAAAAAGGGGAAAGUAUUAUGUUACGCCGUUCGGAUCU	0.384
CCUCAAGUCCUGUGCUACACAUCGUAUGUACCGAAUCGGGGCGGGCGGGCGGAAAGUAUUAUGUUACGCCGUUCGGAUCUGCACUUCCAG	0.271
CAAUGGGAAUGGACCAAAGAGUUUCAGGGAAACUCCAGUAUAUUCCAGAGUCAGAUCUAAGCUCCAGGCACGCCUGAAGAUGUGUUGCUA	-0.0105
CCUGUGCUACACAUCGUAUGUACCGAAUCGGAAAAAAAGGAAAAAAAGGGGAAAAAAAGGAAAGUAUUAUGUUACGCCGUUCGGAUCUGC	0.159
CCUCAAGUCCUGUGCUACACAUCGUAUGUACCGAAUCGGGAGGGAGGGGAGGGAAAGUAUUAUGUUACGCCGUUCGGAUCUGCACUUCCA	0.919
GCAGGAAGUAAAAACAAAUGGAAAUGCUUCGGAUAGUGGCAGGGGUGGGGGUUGCUAAGGAAAGGGUGGGAUGGGAGUGGGUAAAGAGCU	1

Excerpt of the above (set 3):
Sequence	fitted relative affinity [z-score]
TTAGATTTCGGTCTCGGTTAGTGCTAG	3.57
TTAGAACGGAGTATCGATTAGTGCTAG	-0.364
GACGGTATCAGTATCGAGACGTGCTAG	0.242
TTAGGTTTCGGGACTAGGTTAGTGCTA	3.29
GACGCACTGGGTATCGGGACGTGCTAG	-0.191
